Results collected from several papers.
Every numbered part comes from another study and shows a few of its results, in no order. Positions count from the first letter of the parent shown.

Set 1
Target: Prothrombin, mature alpha-thrombin (F2, Homo sapiens, UniProt P00734)
Technique: aptamer microarray, sandwich
Form: DNA with 2'F-ANA
Matrix: in vitro
Concentration: 200 nM
Notes: whole 15-mer aptamer, many near background
Added: Cy3 exosite-II aptamer, 400 nM
Reading: higher = stronger binding
Strand: GGTTGGTGTGGTTGG
Modification | mean fluorescence intensity
2'F-ANA at 1 5 9 10 | 58.5 a.u.
2'F-ANA at 1 7 8 9 10 11 14 | 50.8 a.u.
2'F-ANA at 5 10 11 12 13 15 | 53.5 a.u.
2'F-ANA at 1 2 4 7 8 9 10 11 12 | 57.6 a.u.
2'F-ANA at 1 3 10 13 14 15 | 54.4 a.u.
2'F-ANA at 5 7 9 10 11 12 14 | 46.5 a.u.
2'F-ANA at 1 2 3 5 7 10 12 13 | 48.8 a.u.
2'F-ANA at 2 4 5 6 9 11 12 13 14 15 | 46.7 a.u.
2'F-ANA at 2 3 4 8 9 10 11 15 | 192 a.u.
2'F-ANA at 2 3 4 8 10 12 13 14 | 172 a.u.
2'F-ANA at 5 6 7 9 12 15 | 140 a.u.
2'F-ANA at 6 7 8 9 11 12 13 14 15 | 183 a.u.
2'F-ANA at 2 7 9 11 12 14 15 | 182 a.u.
2'F-ANA at 1 3 4 5 10 11 13 14 15 | 51.5 a.u.
2'F-ANA at 3 4 7 9 10 13 14 | 214 a.u.
2'F-ANA at 2 3 4 8 11 12 13 14 | 378 a.u.
2'F-ANA at 1 3 6 7 9 13 15 | 162 a.u.
2'F-ANA at 2 3 4 5 6 10 13 15 | 131 a.u.
2'F-ANA at 2 5 7 13 14 15 | 49.1 a.u.
2'F-ANA at 1 2 3 6 10 12 14 | 55.3 a.u.
2'F-ANA at 1 4 5 12 15 | 102 a.u.
2'F-ANA at 2 3 6 8 9 10 11 14 15 | 223 a.u.
2'F-ANA at 3 4 5 6 8 9 13 15 | 72.7 a.u.

Set 2
Target: RNA binding protein fox-1 homolog 2, RRM domain, GST-SBP tag (RBFOX2, Homo sapiens, UniProt O43251-10, residues 100-194)
Technique: RNA Bind-n-Seq
Form: RNA
Matrix: in vitro
Concentration: 365 nM
Notes: natural RNA segment, single round, ends assumed
Reference: no-protein control
Reading: higher = stronger binding
Constant ends, left off below: GGGAGUUCUACAGUCCGACGAUC … UGGAAUUCUCGGGUGCCAA
Construct (chain): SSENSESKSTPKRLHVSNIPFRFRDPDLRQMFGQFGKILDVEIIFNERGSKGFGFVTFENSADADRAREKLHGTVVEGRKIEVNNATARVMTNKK
Strand | RBNS enrichment (R)
CAUUGCCUGUGGCCUCUGUCACCCUGGAGCAAAGCCAGACCUUGGAACCCAAACUACUUUAGUCCCUAGAAAAGUUUCUGCUCAGAACUGAGGAUGGAAAGAGCCGUAAU | 0.361
CUGGGAUUUUAAGCUAGGAUAUGAUUAUAUUUCCUAUAAAACUAAAACUUUUAUUUCAUAAAUUUUAAAAUAAUUAUUUUUGAUUAUGAAUACUAGUCCAAAUUUAAUAU | 1.27
CGUCUGUCGAAAGCUGAAGUGCAGAGGGCAGGGAAGCAAACACACCAGAGCUCUUUCUGGUCAGAUUCCCCAGGUGUUUGUCCCCAGCCAAGCCUGGUCCGUAUUGUGAA | 0.356
CCCCGCCGCUUCCCCCACACGCUUGCUCGGCGCUCUGACUUCUAGGAGCACAAGAGAGGAGCCUGUGGCCCCAUGCAGAUGAAAAGGACGGGCAGGGUCUCCUGAGCAGC | 1.74
GGCCGCUGUAUCCAUGGUGAUGGGGUGAGGUUUUGGCCAAAAGGCCAAAGACUGGUGGUGGGUCCACGGAAUCUGCCCUGUGACAUGAAAGGCUUUGAGGGGCUCUGGCU | 0.607
UAUGACAUCUAUUUUGGAAAAUGUUUGCCCUGCUGUACCUCAUUUUUAGGAGGUGUGCAUGGAUGCAAUAUAUGAAAAUGGGACAUUCUGGAACUGCUGGUCAGGGGACU | 0.575
AGAGGCAAAAAAAGACACACUAUUCUCUGCCUCUAAAACACAAUUAAAUAAAAGAAUUUAAAUAAAAUUAAGGCUUCUAUAUGCAUUUUUAAAUUUUGUAUGAAUCUGUU | 1.39
CCUGGUGGAGCCAGGCAGCAGGGCCUUCCUGACCAACAGCCAUGUCUGACCUUCCCACUGAGAAACACAUGUUCAUUUAUGUGAUCAUGUAUAGAUUUCAGAAUAUAAGA | 0.178
GAGAGAUCUCAAGACAUUUUAAUAACAGCUUGAGCCCUCUUCUCCUCUGUAGGAACUUAGGUUAAUAGUAAUAUUAACAACAAGACAUGCUAAGACUCUUUGGUAAUCUA | 0.397
UACAGUUGAGUGGGAGUAAACAAAAAGAUAAACAUGCGUGUUAAUGGCUGUUCGAGAGAAAUCGGAAUAAAAGCCUAAACAGGAACAACUUCAUCACAGUGUUGAUGUUG | 0.408
AAACCAGUCAAGAGCAAUCAAAGCAGCACAUGGUGUUGUAUACUUCAUUAGCAAGUGAGUUUGGUGUUUUAUAGGUCACAUAUGUCUGUAUCUACUUAGCCAGAUGCUUG | 0.398
CCCUCCCAGUCCACAGGGUCUUCCCACUGCCCCUCCUCUGCCACUGCCACAGAGCAGCUUCCCACCUACCCUAGGGACUCCACAGCUUCUGGCAAGCAGGUGCAGAGUCC | 0.467

Set 3
Target: CCND3, cyclin fold, Cln2 fusion (human)
Technique: yeast growth competition, sequencing
Matrix: yeast
Notes: weak parent motif
Reference: not given
Reading: higher = stronger binding
Starting sequence: SCAPER docking peptide (human); SNARRSLNFGGST
Variant | normalised enrichment score
R4P | 0.0627
S1W | 0.213
F9H | 0.0924
N2R | 0.13
S12G | 0.199
S12H | 0.144
R5W | 0.0161
L7M | 0.131
N8M | 0.13
L7P | 0.108
R4E | -0.0465
S6G | 0.207
N8P | 0.11
T13W | 0.0943
G11S | 0.158
S1K | 0.0973
T13N | 0.15
F9I | 0.119
N8G | 0.0843
S6T | 0.129
S1A | 0.168
N8A | 0.109
S6E | 0.0619

Set 4
Target: Histone acetyltransferase KAT6A, both winged helices, GST fusion (KAT6A, Homo sapiens, UniProt Q92794, residues 1-181)
Technique: protein binding microarray
Form: double-stranded DNA, one strand shown
Matrix: in vitro
Concentration: not given
Notes: 8-mer, flanks averaged, mean of 2 arrays, mostly near background
Reference: not given
Reading: higher = stronger binding
Target sequence (chain): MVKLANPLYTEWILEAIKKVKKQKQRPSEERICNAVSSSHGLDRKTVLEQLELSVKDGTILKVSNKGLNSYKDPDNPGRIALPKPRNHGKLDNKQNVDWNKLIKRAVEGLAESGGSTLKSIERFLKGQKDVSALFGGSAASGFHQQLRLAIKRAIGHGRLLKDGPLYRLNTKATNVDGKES
Strand | E-score
AAGGTCGA | -0.0336
ACGGTGTC | 0.188
TCATCGAA | -0.0823
ATCACTCA | -0.0521
CATCAAGG | -0.222
ATTCCTAG | -0.185
ACTTACTA | -0.219
AGGATGAA | -0.253
CCCGCGAA | 0.271
CATTTAAA | 0.0375
ACGTTGAT | -0.0815
CTAAGGAA | -0.016
CATGGCAG | -0.0508
AAAGTCAA | -0.103
AACGACCC | -0.0272
CTCACTGC | -0.11
GTTAGATA | -0.0766
CCGACGTA | 0.136
AAGCTTAC | -0.0777
CTCCGGGC | 0.0913
CCGAGGCA | 0.0148
GCAGACAA | -0.0473
GTGGTCCA | -0.219
GGGTACAA | -0.105
AATCTAGG | -0.107

For quick reference, copied from above (set 1):
Modification | mean fluorescence intensity
2'F-ANA at 5 7 9 10 11 12 14 | 46.5 a.u.
2'F-ANA at 1 2 3 5 7 10 12 13 | 48.8 a.u.
2'F-ANA at 1 2 4 7 8 9 10 11 12 | 57.6 a.u.
2'F-ANA at 3 4 7 9 10 13 14 | 214 a.u.
